Results collected from several papers.
Parts stem from different laboratories: compare values within a part only. Substitutions count along the parent as printed.

Study 1 — technique: aptamer microarray, sandwich; molecule type: DNA with 2'F-ANA; sample: in vitro; concentration: 200 nM; with: Cy3 exosite-II aptamer, 400 nM; direction: higher = stronger binding; sequence: GGTTGGTGTGGTTGG
Target: Prothrombin, mature alpha-thrombin (F2, Homo sapiens, UniProt P00734)
Setting: whole 15-mer aptamer, many near background
Modification	mean fluorescence intensity
2'F-ANA at 1 2 3 7 8 12 13	542 a.u.
2'F-ANA at 1 4 6 12 13 14	53.4 a.u.
2'F-ANA at 2 4 5 8 9 10 11 14 15	50.6 a.u.
2'F-ANA at 2 3 5 6 8 9 10 11 14 15	51.5 a.u.
2'F-ANA at 4 5 7 8	101 a.u.
2'F-ANA at 1 2 5 7 11 12 13 14	49.5 a.u.
2'F-ANA at 1 3 5 6 7 9 13 14 15	45.9 a.u.
2'F-ANA at 3 4 5 7 9 12 13 15	108 a.u.
2'F-ANA at 4 11 12 15	359 a.u.
2'F-ANA at 1 3 7 9 10 12 13 14	61.8 a.u.
2'F-ANA at 1 2 5 6 8 10 11 12 13	49.6 a.u.
2'F-ANA at 1 4 5 7 10 13	43.3 a.u.
2'F-ANA at 4 5 8 10	54.1 a.u.
2'F-ANA at 2 4 5 7 8 9 10 12 14	47.6 a.u.
2'F-ANA at 4 6 8 11 12	466 a.u.
2'F-ANA at 2 3 4 14 15	327 a.u.
2'F-ANA at 1 2 3 4 5 6 7 9 10 12 13	49.8 a.u.
2'F-ANA at 7 8 9 10 11 12 14	319 a.u.
2'F-ANA at 1 6 7 8 10	59.3 a.u.
2'F-ANA at 3 4 6 7 8 9 10 14 15	196 a.u.
2'F-ANA at 3 5 7 9 10 12 15	70.1 a.u.
2'F-ANA at 2 5 6 7 9 11 14	48.3 a.u.
2'F-ANA at 2 5 10 11 14 15	56 a.u.
2'F-ANA at 1 2 4 6 7 9 10 12 13 14	47 a.u.
2'F-ANA at 2 3 4 5 6 8 10 13 14	79.4 a.u.

Study 2 — technique: RNA Bind-n-Seq; molecule type: RNA; sample: in vitro; concentration: 20 nM; setting: 6-mer, flanks averaged, single round; with: 150 mM LiCl; relative to: input library; direction: higher = stronger binding
Target: TAR DNA-binding protein 43, full length, His tag (TARDBP, Homo sapiens, UniProt Q13148, residues 1-414)
Sequence	6-mer enrichment (R)
CGGAUC	0.881
GUCCUA	0.873
GAUUUU	1.05
AUGGCU	0.938
ACGUGC	0.926
AAUUCU	0.922
AUAAUG	0.984
UAGUGG	1.18
CUAUUG	0.949
CUUGUC	0.933
AAUCCG	0.795
AAUAGC	0.881
GGGAAU	1.07
CACCGG	0.882
UUUCCG	0.964
CGGCCU	0.926
UCUUGA	0.952

Study 3 — technique: universal PBM; molecule type: double-stranded DNA, one strand shown; sample: in vitro; concentration: 600 nM; direction: higher = stronger binding
Target: Sal-like protein 4, full length isoform A (SALL4, Homo sapiens, UniProt Q9UJQ4, residues 1-1053)
Sequence of UniProt Q9UJQ4 (whole entry, looked up): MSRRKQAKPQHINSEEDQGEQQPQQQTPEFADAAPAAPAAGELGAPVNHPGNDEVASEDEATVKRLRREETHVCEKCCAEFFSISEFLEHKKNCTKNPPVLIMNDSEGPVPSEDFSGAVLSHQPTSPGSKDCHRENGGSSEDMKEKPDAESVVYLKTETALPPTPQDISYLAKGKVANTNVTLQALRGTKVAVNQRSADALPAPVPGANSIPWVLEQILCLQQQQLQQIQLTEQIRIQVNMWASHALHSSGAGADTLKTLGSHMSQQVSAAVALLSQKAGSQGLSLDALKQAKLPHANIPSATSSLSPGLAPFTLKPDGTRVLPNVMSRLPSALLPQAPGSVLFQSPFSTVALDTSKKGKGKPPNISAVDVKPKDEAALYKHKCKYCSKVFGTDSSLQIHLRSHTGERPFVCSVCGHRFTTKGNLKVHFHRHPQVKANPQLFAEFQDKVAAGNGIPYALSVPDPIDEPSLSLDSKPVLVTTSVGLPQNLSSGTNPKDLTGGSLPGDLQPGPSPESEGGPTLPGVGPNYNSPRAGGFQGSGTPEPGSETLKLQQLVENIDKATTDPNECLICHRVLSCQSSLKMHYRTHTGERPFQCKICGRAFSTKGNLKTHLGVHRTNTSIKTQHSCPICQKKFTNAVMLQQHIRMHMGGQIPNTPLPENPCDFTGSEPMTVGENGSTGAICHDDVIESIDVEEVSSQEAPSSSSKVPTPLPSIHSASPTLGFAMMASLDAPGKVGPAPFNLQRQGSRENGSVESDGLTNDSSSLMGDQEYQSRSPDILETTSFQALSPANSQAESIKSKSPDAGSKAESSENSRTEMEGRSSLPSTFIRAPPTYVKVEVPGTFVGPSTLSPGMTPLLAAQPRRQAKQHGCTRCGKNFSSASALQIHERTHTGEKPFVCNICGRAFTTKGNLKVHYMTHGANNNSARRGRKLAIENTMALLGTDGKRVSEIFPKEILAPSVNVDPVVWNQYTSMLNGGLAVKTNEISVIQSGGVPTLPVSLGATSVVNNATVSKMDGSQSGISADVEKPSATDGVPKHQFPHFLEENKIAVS
Setting: 8-mer, flanks averaged, mean of replicates
Sequence	E-score
GCGGGTAC	-0.154
GCCATCCA	-0.139
GAGAGACA	-0.109
ATAGTCAT	0.192
CGTGCCAG	-0.28
AATAACCA	0.336
ACTAACAC	0.0713
CGCGTAGA	-0.115
CCTTAAAA	0.234
CAATCGGA	-0.133
ACGAGCTC	-0.233
CTGTTAGC	-0.19
CTCCCGAC	-0.213
GCTATTTA	0.282
CGAACGCA	0.0575
CTAAGGCA	-0.0651
GTAACAAC	0.0714
CGGCCTCC	-0.355
GCGGTCAC	-0.258
GACGTTCA	-0.0222
CAAGTCTC	-0.143

Study 4 — technique: protein binding microarray; molecule type: double-stranded DNA, one strand shown; sample: in vitro; concentration: not given; relative to: not given; direction: higher = stronger binding
Target: Histone acetyltransferase KAT6A, winged helix 2, GST fusion (KAT6A, Homo sapiens, UniProt Q92794, residues 85-181)
Setting: 8-mer, flanks averaged, mean of 2 arrays, mostly near background
Residues (chain): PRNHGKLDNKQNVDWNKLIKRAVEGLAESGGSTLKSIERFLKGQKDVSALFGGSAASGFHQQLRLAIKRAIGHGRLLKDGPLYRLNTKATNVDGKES
Sequence	E-score
CATATTGA	0.0835
AATACCAG	-0.0419
CTCTTCCA	0.0108
TCGGGTCA	0.125
AAATGAAA	0.215
CTTTAAAG	-0.16
CTAAAATC	-0.0154
TACTTCGA	0.161
AGATACCG	0.0506
TGTCGGAA	0.137
ATCGCACA	0.122
GCATATGA	-0.106
CCTCGGGA	0.0756
AGCAATGA	-0.0317
CCCATCCC	0.0362
ATCTGGAC	0.018
ACGTCATC	-0.267
CGCACCGC	0.147
ATACGATC	-0.103
CCCTTCGC	-0.118
ACCACCGG	0.0138
GTTGGGGA	0.0524
GGAGCACA	0.0646
AGGAGCAC	0.0471
AGTTCCTA	-0.0838

Study 5 — target: CCND3, cyclin fold, Cln2 fusion (human); technique: yeast growth competition, sequencing; sample: yeast; setting: strong parent motif; relative to: not given; direction: higher = stronger binding
Parent: INSM1 docking peptide (human); PKAIRKLHFEDEV
Substitution	normalised enrichment score
K2F	0.722
R5H	-0.0602
R5Y	0.475
L7T	0.509
F9T	-0.00348
A3S	0.319
H8E	1.47
I4L	0.29
E10G	1.17
K2R	1.29
I4P	0.295
E12F	0.576
A3D	-0.263
A3P	0.382
H8F	1.04
D11W	0.447
I4Y	0.00855
I4W	0.361
F9K	-0.366
I4G	0.304
E10N	0.552

Study 6 — technique: RNAcompete; molecule type: RNA; sample: in vitro; concentration: 20 nM; setting: 7-mer, probes averaged, single round; relative to: mean of 7-mers; direction: higher = stronger binding
Target: PABPC1L2, full length, GST fusion (mouse, UniProt A0ABA7IW68)
Target sequence (chain): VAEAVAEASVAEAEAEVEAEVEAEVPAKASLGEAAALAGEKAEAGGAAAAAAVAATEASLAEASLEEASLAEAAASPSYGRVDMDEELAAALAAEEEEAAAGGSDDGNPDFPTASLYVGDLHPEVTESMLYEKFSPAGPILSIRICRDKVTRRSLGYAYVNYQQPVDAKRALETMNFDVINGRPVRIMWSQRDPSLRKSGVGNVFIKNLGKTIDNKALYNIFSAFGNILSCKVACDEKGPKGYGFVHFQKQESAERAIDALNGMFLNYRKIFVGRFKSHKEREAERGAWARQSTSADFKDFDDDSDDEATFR
Sequence	7-mer Z-score
GCAUUUG	-0.278
GCUUGUA	-0.186
CGACUAG	-0.175
CGCAGGG	0.095
UAAACAG	2.7
CCAAGAC	-0.0844
GAGUUCU	-0.421
AUUCAGU	-0.182
CAUAAUG	-0.179
UGAGGGC	0.204
UUCGUAU	-0.374
UCCCGGU	-0.3
GAAUGGG	0.274
UUGUAGA	-0.238
UUAGAGG	0.0932
CUUCAGU	-0.296
GGCGGAC	0.253
AACCCUA	-0.0337
CCAUCAC	-0.238
GCACGUU	-0.182
GCAUUGA	-0.0156
GCUAUAG	-0.262
GUGACGA	0.211
GCUGUCG	-0.32
AGCCUGC	-0.155
